Assay results gathered from unrelated publications.
Protocols differ between the studies behind these lines. ± gives the spread as reported.
ache: Acetylcholinesterase (ache, Electrophorus electricus, UniProt O42275)

SMILES | target | assay | system | setting | Ki [nM]
CCCc1ccc2c(c1)sc(=O)n2CCCN1CCCCCC1 | Sigma non-opioid intracellular receptor 1 (Sigmar1, Rattus norvegicus, UniProt Q9R0C9) | binding, radioligand binding | rat liver membranes | together with: [3H](+)-pentazocine 5 nM | 1.4 ± 0.1
Cc1cc2c(cc1Cl)-c1c(c(C(=O)NC3C4(C)CCC(C4)C3(C)C)nn1-c1ccc(Cl)cc1Cl)C2 (stereo not shown) | Cannabinoid receptor 1 (Cnr1, Mus musculus, UniProt P47746) | binding, radioligand displacement | mouse brain homogenate without cerebellum | together with: [3H]CP-55,940 | 3250 ± 750
CC[C@H](C)[C@H](NC(=O)[C@H](Cc1ccn2nccc2c1)NC(=O)[C@@H]1CCCN1C(=O)[C@H](CCCNC(=N)N)NC(=O)[C@@H](N)CCCNC(=N)N)C(=O)N[C@@H](CC(C)C)C(=O)O | Neurotensin receptor type 2 (NTSR2, Homo sapiens, UniProt O95665) | ligand displacement, radioligand | – | cell membranes | 4.8
CCCCCCCCCCCCCCCc1ccc(C(O)P(=O)(O)O)cc1 (racemic) | Autotaxin (ENPP2, Homo sapiens, UniProt Q13822) | – | – | free enzyme | 450
CC(=O)N[C@@H](CCCNC(=N)N)C(=O)N[C@@H](Cc1ccc(O)cc1)C(=O)N[C@@H](CCCNC(=N)NC(=O)NCCCCN)C(=O)N[C@@H](CC(C)C)C(=O)N[C@@H](CCCNC(=N)N)C(=O)N[C@H](Cc1ccc(O)cc1)C(N)=O | Neuropeptide Y receptor type 1 (NPY1R, Homo sapiens, UniProt P25929) | ligand displacement, radioligand | – | – | > 5000
CC[C@H](C)[C@H](NC(=O)CN)C(=O)N[C@H](C(=O)N[C@@H](CC(N)=O)C(=O)N[C@H](C(=O)N[C@@H](CC(C)C)C(=O)N[C@@H](CCC(N)=O)C(=O)N[C@@H](CCCCN)C(=O)N[C@@H](Cc1ccc(O)cc1)C(=O)N[C@@H](Cc1ccc(O)cc1)C(=O)N[C@H]1CSSC[C@@H]2NC(=O)[C@H](CCCCN)NC(=O)[C@H](CCCNC(=N)N)NC(=O)CNC(=O)[C@H](CCCNC(=N)N)NC(=O)[C@H]([C@@H](C)O)NC(=O)[C@H](CO)NC(=O)[C@@H]3CSSC[C@H](NC(=O)[C@H](CCCNC(=N)N)NC(=O)CNC(=O)CNC(=O)[C@H](CCCNC(=N)N)NC(=O)[C@H](C(C)C)NC(=O)[C@H](CCCNC(=N)N)NC1=O)C(=O)N[C@@H](C)C(=O)N[C@@H](C(C)C)C(=O)N[C@@H](CC(C)C)C(=O)N[C@@H](CO)C(=O)N[C@@H](CSSC[C@@H](C(=O)N[C@@H](CCC(N)=O)C(=O)N[C@@H](CCC(N)=O)C(=O)N[C@@H](CCC(N)=O)C(=O)N[C@@H](CCC(N)=O)C(N)=O)NC2=O)C(=O)N[C@@H](CC(C)C)C(=O)N1CCC[C@H]1C(=O)N[C@@H](CCCCN)C(=O)N[C@@H](CCC(=O)O)C(=O)N[C@@H](CCC(=O)O)C(=O)N[C@@H](CCC(N)=O)C(=O)N[C@@H]([C@@H](C)CC)C(=O)NCC(=O)N[C@@H](CCCCN)C(=O)N3)[C@@H](C)O)[C@@H](C)CC | Melanocyte-stimulating hormone receptor (MC1R, Homo sapiens, UniProt Q01726) | ligand displacement in cells | – | – | 193
CC[C@H](C)[C@H](NC(=O)[C@@H]1CSCC(=O)NCCCC[C@H](NC(=O)[C@H](Cc2ccc(O)cc2)NC(=O)CNC(C)=O)C(=O)N[C@@H](CO)C(=O)N[C@@H](CCCNC(=N)N)C(=O)N[C@@H](CO)C(=O)N[C@@H](Cc2ccc(O)cc2)C(=O)N2CCC[C@H]2C(=O)N2CCC[C@H]2C(=O)N[C@@H](C(C)C)C(=O)N1)C(=O)N1CCC[C@H]1C(=O)N[C@@H](CC(=O)O)C(N)=O | Mannan-binding lectin serine protease 2 (Homo sapiens, UniProt O00187) | enzyme activity, inhibitor | – | – | 41000
CC(C)C[C@H](NC(=O)[C@H](CCCNC(=N)N)NC(=O)[C@H](Cc1c[nH]c2ccccc12)NC(=O)[C@H](Cc1ccccc1)NC(=O)[C@H](Cc1ccccc1)N(C)C(=O)CN)C(=O)N[C@@H](CCCNC(=N)N)C(=O)N[C@@H](CCCNC(=N)N)C(=O)N[C@H](C)C(=O)N[C@@H](CCCNC(=N)N)C(=O)N1CCC[C@H]1C(=O)N[C@@H](CCCCN)C(N)=O | Kappa-type opioid receptor (Oprk1, Rattus norvegicus, UniProt P34975) | ligand displacement, radioligand | – | – | 15.4
COc1cc(/C=C/C(=O)CC(=O)/C=C/c2ccc(OC(=O)CCc3c[nH]c4ccccc34)c(OC)c2)ccc1OC(=O)CCc1c[nH]c2ccccc12 | ache | enzyme activity, inhibitor | – | – | 3000
Cc1nc(-c2ccc(Cl)cc2)nc2sc3c(=O)n(CCN4CCOCC4)cnc3c12 | ache | enzyme activity, inhibitor | – | – | 300
